Results collected from several papers.
Numbered parts are unrelated; each lists some results of a single study. Positions count from the first letter of the parent shown.

Set 1 — method: DHFR PCA, deep sequencing; sample: yeast; added: (+)-ABA 4.8 µM; relative to: wild-type fitted maximum; direction: higher = stronger binding
Target: ABI1, truncated, D143A, DHFR fusion (Arabidopsis thaliana)
Setting: methotrexate growth selection, single substitutions
Starting sequence: PYL1, truncated, DHFR fusion (Arabidopsis thaliana); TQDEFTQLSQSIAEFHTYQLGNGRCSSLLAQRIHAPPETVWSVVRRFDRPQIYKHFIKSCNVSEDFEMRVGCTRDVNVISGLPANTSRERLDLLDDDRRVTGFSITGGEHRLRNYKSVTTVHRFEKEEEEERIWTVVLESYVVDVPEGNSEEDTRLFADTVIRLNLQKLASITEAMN
Change | relative binding score
I52S | 62.6%
L20D | 75.9%
V143I | 9.22%
E64H | 69.8%
D96A | 4.49%
S140P | 0.848%
I79H | 69.7%
E152Y | 59.5%
S63D | 77.6%
G108A | -2.83%
L28A | 8.59%
A158E | -6.03%
R24A | 51.8%
E147I | 55.1%
I172W | 8.75%
Q51M | 32.8%

Set 2 — target: CCNE1, cyclin fold, Cln2 fusion (human); method: yeast growth competition, sequencing; sample: yeast; setting: strong parent motif; relative to: not given; direction: higher = stronger binding
Starting sequence: PPP1R3F docking peptide (human); VAPRRVLFADEAL; partner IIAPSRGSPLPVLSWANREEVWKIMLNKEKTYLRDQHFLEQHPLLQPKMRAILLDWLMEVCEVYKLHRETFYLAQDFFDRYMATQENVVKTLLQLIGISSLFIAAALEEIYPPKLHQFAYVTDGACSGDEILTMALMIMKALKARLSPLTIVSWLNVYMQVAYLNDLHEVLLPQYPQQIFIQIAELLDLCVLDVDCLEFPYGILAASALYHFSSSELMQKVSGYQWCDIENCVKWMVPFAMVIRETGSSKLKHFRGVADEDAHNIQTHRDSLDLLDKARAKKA
Change | normalised enrichment score
L13A | 2.74
R5K F8L | 0.158
R4A | 1.94
D10A | 1.94
L7A | 0.526
R5A | 0.585

Set 3 — target: UBE2H UBC core domain (UniProt P62256); method: yeast two-hybrid; sample: yeast; setting: mostly zero background; relative to: not given; direction: higher = stronger interaction
UniProt P62256, sequence (whole entry, looked up): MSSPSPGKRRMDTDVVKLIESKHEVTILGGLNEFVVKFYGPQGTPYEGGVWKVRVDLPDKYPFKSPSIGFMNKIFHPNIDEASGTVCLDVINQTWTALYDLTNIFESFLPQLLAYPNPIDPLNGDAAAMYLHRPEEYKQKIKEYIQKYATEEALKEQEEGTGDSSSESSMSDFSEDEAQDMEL
B1: ZMYND11 RING domain (UniProt Q15326); chain DEIDWETENHDWYCFECHLPGEVLICDLCFRVYHSKCLSDEFRLRDSSSPWQCPVCRSIKKKNTNKQEM
B2: CNOT4 RING domain (UniProt O95628); chain MSRSPDAKEDPVECPLCMEPLEIDDINFFPCTCGYQICRFCWHRIRTDENGLCPACRKPYPED
B3: VPS8 RING domain (UniProt Q8N3P4); chain TRGLNPKQDYCSICLQQYKRRQEMADEIIVFSCGHLYHSFCLQNKECTVEFEGQTRWTCYKCSSSNKVGKLSE
B4: ARIH2 RING domain (UniProt O95376); chain HVPTSHPPHHCAVCMQFVRKENLLSLACQHQFCRSCWEQHCSVLVKDGVGVGVSCMAQDCPLRTPEDFVF
B5: TRIM41 RING domain (UniProt Q8WV44); chain PVQTLQEEAVCAICLDYFTDPVSIGCGHNFCRVCVTQLWGGEDEEDRDELDREEEEEDGEEE
B6: TRIM11 RING domain (UniProt Q96F44); chain LSTNLQEEATCAICLDYFTDPVMTDCGHNFCRECIRRCWGQPEGPYACPECRELSPQRNLRP
Molecule | lacZ reporter activity
B1 (ZMYND11 RING domain) | 0
EIKEYKARLTCPCCNTRKKDAVLTKCFHVFCFECVRGRYEARQRKCPKCNAAFGAHDFHR (RNF40 RING domain (UniProt O75150)) | 0
LEALSSDFLACKICLEQLRAPKTLPCLHTYCQDCLAQLADGGRVRCPECRETVPVPPEGV (TRIM56 RING domain (UniProt Q9BRZ2)) | 8240
DDVLTKDAGECVICLEELLQGDTIARLPCLCIYHKSCIDSWFEVNRSCPEHPAD (ZNRF1 RING domain (UniProt Q8ND25)) | 0
B2 (CNOT4 RING domain) | 0
B3 (VPS8 RING domain) | 0
ASPKIFQKTKCSICNSALELPSVHFLCGHSFHQHCFESYSESDADCPTCLPENRKVMDMI (VPS11 RING domain (UniProt Q9H270)) | 0
B4 (ARIH2 RING domain) | 0
LVKDFNPYITCYICKGYLIKPTTVTECLHTFCKTCIVQHFEDSNDCPRCGNQVHETNPLE (PCGF5 RING domain (UniProt Q86SE9)) | 0
B5 (TRIM41 RING domain) | 0
B6 (TRIM11 RING domain) | 0

Set 4 — target: CREB3L2, bZIP domain (human); method: DHFR protein complementation; sample: yeast; relative to: wild-type JUN-FOS pair; direction: higher = stronger binding
Setting: single substitutions, most at no-binding floor
Starting sequence: JUN, bZIP domain (human); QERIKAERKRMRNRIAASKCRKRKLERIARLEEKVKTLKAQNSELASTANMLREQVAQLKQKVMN; partner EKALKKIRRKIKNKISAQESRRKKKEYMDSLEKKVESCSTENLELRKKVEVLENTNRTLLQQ
Change | binding fitness [natural log]
I28P | -1.55
N42H | -1.5
A29V | -1.56
K36I | -1.59
M51R | -1.42
E54W | -1.5
N42Q | -1.44
A57G | -1.49
R30M | -1.43
V35L | -1.34
I28A | -1.46
A46W | -1.4
A49H | -1.52
K34A | -1.51
E32T | -1.53
M51V | -1.54
R53S | -1.45
I28S | -1.3
I28T | -1.5

Set 5 — method: aptamer microarray, sandwich; form: DNA with 2'F-ANA; sample: in vitro; tested at: 200 nM; added: Cy3 exosite-II aptamer, 400 nM; direction: higher = stronger binding; sequence: GGTTGGTGTGGTTGG
Target: Prothrombin, mature alpha-thrombin (F2, Homo sapiens, UniProt P00734)
Setting: whole 15-mer aptamer, many near background
Modification | mean fluorescence intensity [a.u.]
2'F-ANA at 4 5 6 8 9 10 11 12 13 14 | 51.6
2'F-ANA at 1 2 3 7 8 9 10 14 15 | 56.2
2'F-ANA at 5 7 9 11 13 14 15 | 43.5
2'F-ANA at 2 5 8 11 14 | 60.6
2'F-ANA at 2 3 4 6 8 9 12 14 15 | 257
2'F-ANA at 5 9 10 11 12 13 14 15 | 47.6
2'F-ANA at 1 5 8 12 | 131
2'F-ANA at 2 3 10 12 | 689
2'F-ANA at 1 3 4 8 10 12 13 14 15 | 52.1
2'F-ANA at 3 4 5 7 8 9 11 12 14 | 59
2'F-ANA at 2 3 6 9 10 12 13 | 347
2'F-ANA at 2 3 4 6 7 8 10 11 12 13 15 | 207
2'F-ANA at 2 4 6 7 10 11 13 14 | 61
2'F-ANA at 2 4 6 7 11 12 | 422
2'F-ANA at 1 2 5 7 8 10 11 12 13 14 15 | 48.8
2'F-ANA at 1 2 3 4 6 7 8 12 13 14 | 74
2'F-ANA at 2 5 6 7 8 9 12 14 | 66.4
2'F-ANA at 2 3 4 9 10 12 | 345
2'F-ANA at 5 6 10 11 12 13 | 47.3
2'F-ANA at 2 3 6 10 12 13 | 468

Set 6 — method: RNA Bind-n-Seq; form: RNA; sample: in vitro; tested at: 200 nM; setting: whole 134-nt RNA, ends assumed; added: 150 mM KCl; relative to: input library; direction: higher = stronger binding
Target: Fragile X messenger ribonucleoprotein 1, C-terminal low-complexity region (Fmr1, Mus musculus, UniProt P35922)
Shared flanks, not repeated: GGGAGUUCUACAGUCCGACGAUC … UGGAAUUCUCGGGUGUCAAGG
Sequence | log2 enrichment
UGGGAGGUGGAUUUUGUUUAUUUUUUUAUCUCAUUUCCAGGGGUGGGAAUUUUUUUUUAAUAUGUGUCAUGAAUAAAGUUGUUUUUGAAA | 0.118
ACCAUGCAGGUGGGCAUCUUUGGGAAGUGGGGCAAGGGGGGGAUAGGAAAGGGGGUAACACUUUGGGAACAGGUGGUCCCAGGUCGUUUC | 0.577
UCCUGUGCUACACAUCGUAUGUACCGAAUCGGGAAAAAGGGUUUUUUUGGGAAAAAGGGAAAGUAUUAUGUUACGCCGUUCGGAUCUGCA | -0.464
UGUGACAGGAGAGCGCUUGAAGAGCAAUGUGACGAGGACCAUCAGACACCGAGGGAUGGAGAGACAUCCCACAGGGCCCAGAUUCAGCAG | 0.0987
AGUCCUGUGCUACACAUCGUAUGUACCGAAUCGGGGUUUUUUUGGGGUGGGGAGGGGAAAGUAUUAUGUUACGCCGUUCGGAUCUGCACU | 1
UGGCCCUGGUGGCAUGCGGGGAGGAAGAGGUGGCCUCAUGGAUCGUGGUGGUCCCGGUGGCAUGUUCAGAGGUGGCCGUGGUGGAGACAG | -0.199
AAGUCCUGUGCUACACAUCGUAUGUACCGAAUCGGGGCCCGGGGCCCGGGGCCCGGAAAGUAUUAUGUUACGCCGUUCGGAUCUGCACUU | -1.08
ACCAUGCAGGUCGGCAUCUUUGGGAAGUGGGGCAAGGGGGGGAUAGGGAGGGGGGUAACACUUUGGGAACAGGUGGUCCCAGGUCGUUUC | 1.07

A few entries again (set 3):
Molecule | lacZ reporter activity
LEALSSDFLACKICLEQLRAPKTLPCLHTYCQDCLAQLADGGRVRCPECRETVPVPPEGV (TRIM56 RING domain (UniProt Q9BRZ2)) | 8240
DDVLTKDAGECVICLEELLQGDTIARLPCLCIYHKSCIDSWFEVNRSCPEHPAD (ZNRF1 RING domain (UniProt Q8ND25)) | 0
B2 (CNOT4 RING domain) | 0
B3 (VPS8 RING domain) | 0
ASPKIFQKTKCSICNSALELPSVHFLCGHSFHQHCFESYSESDADCPTCLPENRKVMDMI (VPS11 RING domain (UniProt Q9H270)) | 0
B4 (ARIH2 RING domain) | 0
LVKDFNPYITCYICKGYLIKPTTVTECLHTFCKTCIVQHFEDSNDCPRCGNQVHETNPLE (PCGF5 RING domain (UniProt Q86SE9)) | 0
B5 (TRIM41 RING domain) | 0
B6 (TRIM11 RING domain) | 0
